Results from different studies.
Each line is one published result; not all experiments were run side by side. ± gives the spread as reported.
Urease: Urease (Canavalia ensiformis, UniProt P07374)
HDAC1: Histone deacetylase 1 (HDAC1, Homo sapiens, UniProt Q13547)

Structure (SMILES)	target	assay	system	conditions	IC50 [µM]
CC[C@@H](C)[C@@H](NC(=O)[C@@H](CCCCN)NC(=O)[C@@H](CC(C)C)NC(=O)[C@H](N)[C@H](C)O)C(=O)N[C@@H](C(=O)N[C@H](Cc1c[nH]c2ccccc12)C(=O)N[C@H](CS)C(=O)O)C(C)C	Microtubule-associated protein tau, K18 fragment, monomeric (MAPT, Homo sapiens, UniProt P10636)	tau K18 aggregation, inhibitor, thioflavin T fluorescence	–	pH 7.4, 37 °C, together with: heparin 15 µM	12.1 ± 0.3
CC(=O)CCC1C(=O)NC(C(C)C)C(=O)NC(Cc2cccc(O)c2)C(=O)N2CCCC(N2)C(=O)OC(C(C)=CC=CC(=O)N2CCCCO2)CC=CC=CC(O)C(C)C1O (centres unmarked)	SLCO1B1 (Homo sapiens, UniProt Q9Y6L6)	transporter uptake, inhibitor	CHO	pH 7.3	11
COc1ccc2nc(C)cc(OCC(=O)Nc3cc(C)cc(C)c3)c2c1	Cytochrome P450 2D6 (CYP2D6, Homo sapiens, UniProt P10635)	inhibitor	–	–	4.6
Cc1cc(S(=O)(=O)Nc2ncccn2)c(F)cc1N(C)C1CCN([C@H](C)c2ccccc2)CC1	SCN8A (Homo sapiens, UniProt Q9UQD0, R1626A)	ion current, inhibitor, patch clamp	–	R1626A mutant	166
O=C1c2c(ccc(O)c2O)CN1Cc1cccc(Cl)c1F	Gag-Pol polyprotein, integrase (gag-pol, Human immunodeficiency virus 1, UniProt P12497)	strand transfer, inhibitor, gel-based	–	recombinant wild-type integrase	2.2 ± 0.3
Nc1ncnc2c1ncn2[C@@H]1O[C@H](CSCCNC(=O)NCCc2ccccc2)[C@@H](O)[C@H]1O	DNMT1 (Homo sapiens, UniProt P26358)	enzyme activity, inhibitor, radiometric	–	–	> 50
Nc1nc2c(c(=O)[nH]1)[n+](Cc1cccc(S(=O)(=O)F)c1)cn2[C@@H]1O[C@H](COP(=O)(O)O)[C@@H](O)[C@H]1O	NT5C3B (Homo sapiens, UniProt Q969T7)	m7GMP dephosphorylation, inhibitor, malachite green	–	1 h preincubation, pH 7.5, 30 °C, together with: m7GMP 100 µM	> 50
CC1(C)O[C@H]2OC(CNCCCCCCCCCCCCNCC3O[C@@H]4OC(C)(C)O[C@@H]4[C@H]3OCc3ccccc3)[C@H](OCc3ccccc3)[C@H]2O1 (some centres unmarked)	DNA ligase 1 (Homo sapiens, UniProt P18858)	enzyme activity, inhibitor, radiometric	–	–	27
O=C(CCNC(=O)c1ccc(OC(F)(F)F)cc1)N[C@@H]1CCCc2ccccc21	DHODH (Homo sapiens, UniProt Q02127)	enzyme activity, inhibitor, absorbance	–	–	0.2
CC(=O)NCP(=O)(O)O	Urease	inhibitor	–	pH 7	> 1000
CC[C@H](C)[C@H](NC(=O)[C@H](Cc1c[nH]cn1)NC(=O)[C@H](CC(C)C)NC(=O)[C@H](Cc1ccc(O)cc1)NC(=O)[C@H](Cc1ccc(O)cc1)NC(=O)[C@H](Cc1ccccc1)NC(=O)[C@H](CC(=O)O)NC(=O)[C@H](CS)NC(=O)[C@@H](N)Cc1ccccc1)C(=O)O	APOBEC3G (Homo sapiens, UniProt Q9HC16)	deamination activity, inhibitor, PCR/StuI restriction	–	pH 7.4, 37 °C, together with: ssDNA substrate 1 fmol/µL	> 100
CC(C)=C/C=C/[C@@H](C)[C@H]1CC[C@@H]2[C@]1(C)CC[C@H]1[C@]23C=C[C@]2(C[C@@H](O)CC[C@]12C)OO3	PTPN6 (Homo sapiens, UniProt P29350)	enzyme activity, inhibitor, absorbance	–	–	1.19
CN(C)CCCOc1ccc(C2Sc3ccccc3NC3=C2C(=O)c2ccccc23)cc1 (racemic)	Type II NADH dehydrogenase (Plasmodium falciparum, UniProt Q8I302)	enzyme activity, inhibitor	–	–	> 20
N=C(N)NCCC[C@@H]1NC(=O)[C@H](CCCCNC(=O)CNC(=O)CNC(=O)CNC(=O)CC[C@H](NC(=O)CCOCCOCCOCCOCCNC(=O)CC[C@H](NC(=O)CN2CCN(CC(=O)O)CCN(CC(=O)O)CCN(CC(=O)O)CC2)C(=O)NCCOCCOCCOCCOCCC(=O)N[C@@H](CCC(=O)NCC(=O)NCC(=O)NCC(=O)NCCCC[C@@H]2NC(=O)[C@@H](Cc3ccccc3)NC(=O)[C@H](CC(=O)O)NC(=O)CNC(=O)[C@H](CCCNC(=N)N)NC2=O)C(=O)NCC(=O)NCC(=O)NCC(=O)NCCCC[C@@H]2NC(=O)[C@@H](Cc3ccccc3)NC(=O)[C@H](CC(=O)O)NC(=O)CNC(=O)[C@H](CCCNC(=N)N)NC2=O)C(=O)NCC(=O)NCC(=O)NCC(=O)NCCCC[C@@H]2NC(=O)[C@@H](Cc3ccccc3)NC(=O)[C@H](CC(=O)O)NC(=O)CNC(=O)[C@H](CCCNC(=N)N)NC2=O)NC(=O)[C@@H](Cc2ccccc2)NC(=O)[C@H](CC(=O)O)NC(=O)CNC1=O	Integrin alpha-V/beta-3 (Homo sapiens, UniProt P05106+P06756)	ligand displacement, radioligand	–	–	0.0002
O=C(c1cccc(-n2cccc2)c1)N1CCCN(S(=O)(=O)c2ccc(F)cc2)CC1	Procathepsin L (CTSL, Homo sapiens, UniProt P07711)	enzyme activity, inhibitor, FRET	–	–	66.9
COC(=O)C=CCCC(NC(=O)c1ccncc1C(=O)O)C(=O)NC(C(=O)N1CC(=O)CC1C(=O)NC(C(=O)NC(C(N)=O)C1CCCCC1)C1CCCCC1)C(C)(C)C (centres unmarked)	Protein-glutamine gamma-glutamyltransferase E (Homo sapiens, UniProt Q08188)	enzyme activity, inhibitor	–	–	66.5
CCCC[C@H](NC(=O)[C@H](C)NC(=O)[C@H](CCC(=O)O)NC(=O)[C@H](Cc1ccccc1)NC[C@H](CC(C)C)NC(=O)[C@@H](NC(=O)[C@@H](N)CCCNC(=N)N)C(C)C)C(=O)O	Gag-Pol polyprotein, protease (gag-pol, Human immunodeficiency virus 1, UniProt P12497)	enzyme activity, inhibitor, FRET	NL4-3 wild type	–	0.0026 ± 0.0004
COc1c(OCCOCCOCCOCCOCCOCCOc2cccc(C(=O)C3CCN(CCc4ccc(F)cc4)CC3)c2OC)cccc1C(=O)C1CCN(CCc2ccc(F)cc2)CC1	HTR2A (Homo sapiens, UniProt P28223)	phosphorylation in cells, antagonist	–	–	0.164
O=C(Nc1ccccc1)c1ccccc1O	HDAC10 (Homo sapiens, UniProt Q969S8)	enzyme activity, inhibitor, fluorescence	–	–	> 10

Structure (SMILES)	target	assay	system	conditions	IC50 [µM]
CC(=O)N[C@@H](Cc1ccccc1)C(=O)N[C@@H](CC(C)C)C(=O)N[C@H](C(=O)N[C@@H](CC(=O)O)C(=O)CCl)[C@@H](C)O	Caspase-10 (CASP10, Homo sapiens, UniProt Q92851)	enzyme activity, inhibitor, fluorescence	–	–	82.8
CC(C)C[C@H](NC(=O)[C@@H](NC(=O)[C@H](CCC(N)=O)NC(=O)CNC(=O)[C@H](CO)NC(=O)[C@H](Cc1ccccc1)NC(=O)[C@@H](N)CC(C)C)C(C)C)C(=O)O	ACE (Homo sapiens, UniProt P12821)	enzyme activity, inhibitor, HPLC	–	–	647
CCCN1CCc2cc(O)cc3c2[C@H]1Cc1ccc(O)c(O)c1-3	Carbamate kinase (Giardia intestinalis, UniProt A8BB85)	enzyme activity, ATP luminescence	–	–	8.19
NC[C@@H](CC[C@H](N)C(=O)O)C[C@H]1O[C@@H](n2cnc3c(N)ncnc32)[C@H](O)[C@@H]1O	RNA demethylase ALKBH5 (Homo sapiens, UniProt Q6P6C2)	RNA demethylase activity, inhibitor	–	–	> 50
N#Cc1ccc(NC(=O)c2cccnc2)cc1Cl	EGFR (Homo sapiens, UniProt P00533)	enzyme activity, Kinase-Glo luminescence	–	–	2.87 ± 1.12
Cc1cc(C)c(C(=O)N(C)Cc2nnc[nH]2)[nH]1	Urease	enzyme activity, inhibitor, absorbance	–	–	14.3
C[C@@](Cc1ccccc1)(NC(=O)[C@@H]1CCCN1C(=O)[C@H](CO)NC(=O)[C@H](Cc1ccccc1)NC(=O)CNC(=O)[C@@H]1CCCN1C(=O)[C@@H]1CCCN1C(=O)[C@@H](N)CCCNC(=N)N)C(=O)N[C@@H](CCCNC(=N)N)C(=O)O	BDKRB2 (Homo sapiens, UniProt P30411)	ligand displacement, radioligand	–	–	0.074
CC[C@@H]1NC(=O)[C@H]([C@H](O)[C@H](C)Cc2nc3ccc(-c4nc5ccccc5s4)cc3[nH]2)N(C)C(=O)[C@H](C(C)C)N(C)C(=O)[C@H](CC(C)C)N(C)C(=O)[C@H](CC(C)C)N(C)C(=O)[C@@H](C)NC(=O)[C@H](C)NC(=O)[C@H](CC(C)C)N(C)C(=O)[C@H](C(C)C)NC(=O)[C@H](CC(C)C)N(C)C(=O)CN(C)C1=O	PPIA/Calcineurin subunit B type 1/PPP3CA (Homo sapiens, UniProt P62937+P63098+Q08209)	enzyme activity, inhibitor	–	–	> 10
O=C(CCCCCCC(=O)Nc1ccccc1N=Nc1ccccc1)NO	HDAC1	enzyme activity, inhibitor	–	cis isomer, irradiated	0.057 ± 0.011
C=CC1C(OC2OC(CO)C(O)C(O)C2O)OC=C2C(=O)OCCC21 (centres unmarked)	MAL12 (Saccharomyces cerevisiae S288c, UniProt P53341)	enzyme activity, inhibitor, absorbance	–	–	> 100
N=C(N)NCCC[C@H](N)C(=O)N1CCC[C@H]1C(=O)N1CCC[C@H]1C(=O)NCC(=O)N[C@@H](Cc1ccccc1)C(=O)N[C@@H](CO)C(=O)N1CCC[C@H]1C(=O)N[C@@H](Cc1ccccc1)C(=O)N[C@@H](CCCCN)C(=O)O	BDKRB1 (Homo sapiens, UniProt P46663)	–	–	–	130
CCCCCc1cc(O)c2c(c1)OC(C)(C)C1CCC(C(=O)OC3OC(C(=O)O)C(O)C(O)C3O)=CC21 (centres unmarked)	Cytochrome P450 2B6 (CYP2B6, Homo sapiens, UniProt P20813)	inhibitor	HEK cell microsomes	30 min preincubation with NADPH	4.1 ± 1
F[P-](F)(F)(F)(F)F.OCP(CO)CO.OCP(CO)CO.OCP(CO)CO.OCP(CO)CO.[Cu+]	PSMB6/PSMB5/PSMB7 (Homo sapiens, UniProt P28072+P28074+Q99436)	trypsin-like activity	26S proteasome from LoVo cells	–	34
CC[C@H](C)[C@H](NC(=O)[C@H](CCCNC(=N)N)NC(=O)[C@H](CCSC)NC(=O)[C@H](C)N)C(=O)N[C@@H](CO)C(=O)N[C@@H](CCCNC(=N)N)C(=O)N[C@H](C(=O)N[C@H](C(=O)N[C@@H](CCCNC(=N)N)C(=O)N[C@H](CC(=O)O)C(=O)N[C@@H](Cc1ccccc1)C(=O)N[C@@H](CC(C)C)C(=O)N[C@@H](Cc1ccccc1)C(=O)N[C@@H](CCC(N)=O)C(=O)N[C@@H](CCCNC(=N)N)C(=O)N[C@@H](CCCCN)C(=O)N[C@@H](CCCCN)C(=O)O)[C@@H](C)CC)[C@@H](C)CC	histidine kinase ComD (Streptococcus pneumoniae serotype 2, UniProt A0A0H2ZM50)	–	Streptococcus pneumoniae	–	> 1
CC[C@@H]1C(=O)N(C)c2cnc(Nc3ccc(C(=O)NCCCC[C@H](NC(=O)[C@@H](NC(=O)[C@H](CO)NC(=O)[C@H](Cc4cncn4CCCCCCCCc4ccccc4)NC(=O)[C@H](CC(C)C)NC(=O)[C@@H]4CCCN4C(C)=O)[C@@H](C)OP(=O)(O)O)C(N)=O)cc3OC)nc2N1C1CCCC1	PLK3 (Homo sapiens, UniProt Q9H4B4)	enzyme activity, inhibitor	–	–	0.021
CN(C)c1ccc(C(=O)NCc2ccc(CNC(=O)CS)cc2)cc1	HDAC1	enzyme activity, inhibitor	–	–	14.7
CC(C)[C@H](NC(=O)c1ccc(CNc2nc3c(c(=O)[nH]2)CCC3)cc1)C(=O)NC1COC1	MMP8 (Homo sapiens, UniProt P22894)	enzyme activity, inhibitor	–	–	> 5
CC1C(=NOCc2cc(-c3ccc(Cl)cc3)no2)C(C)C(c2ccc(Br)cc2)OC1c1ccc(Br)cc1 (centres unmarked)	DNA gyrase (gyrA/gyrB, Escherichia coli, UniProt P0AES4+P0AES6)	–	–	–	13
N#Cc1nccc(N2CCNCC2)n1	Phosphatidylinositol 3,4,5-trisphosphate 5-phosphatase 1, Ptase-C2 domains (INPP5D, Homo sapiens, UniProt Q92835)	enzyme activity, inhibitor	–	–	91.9

Excerpt of the above:
Structure (SMILES)	target	assay	system	conditions	IC50 [µM]
O=C(CCCCCCC(=O)Nc1ccccc1N=Nc1ccccc1)NO	HDAC1	enzyme activity, inhibitor	–	cis isomer, irradiated	0.057 ± 0.011
CC(C)[C@H](NC(=O)c1ccc(CNc2nc3c(c(=O)[nH]2)CCC3)cc1)C(=O)NC1COC1	MMP8 (Homo sapiens, UniProt P22894)	enzyme activity, inhibitor	–	–	> 5
NC[C@@H](CC[C@H](N)C(=O)O)C[C@H]1O[C@@H](n2cnc3c(N)ncnc32)[C@H](O)[C@@H]1O	RNA demethylase ALKBH5 (Homo sapiens, UniProt Q6P6C2)	RNA demethylase activity, inhibitor	–	–	> 50
COc1c(OCCOCCOCCOCCOCCOCCOc2cccc(C(=O)C3CCN(CCc4ccc(F)cc4)CC3)c2OC)cccc1C(=O)C1CCN(CCc2ccc(F)cc2)CC1	HTR2A (Homo sapiens, UniProt P28223)	phosphorylation in cells, antagonist	–	–	0.164
